Experimental data of several laboratories.
Compare with care: the assays were run in different laboratories. ± marks the error that the study gave.
Target: Estrogen receptor beta (ESR2, Homo sapiens, UniProt Q92731)
UniProt Q92731, sequence (whole entry, looked up): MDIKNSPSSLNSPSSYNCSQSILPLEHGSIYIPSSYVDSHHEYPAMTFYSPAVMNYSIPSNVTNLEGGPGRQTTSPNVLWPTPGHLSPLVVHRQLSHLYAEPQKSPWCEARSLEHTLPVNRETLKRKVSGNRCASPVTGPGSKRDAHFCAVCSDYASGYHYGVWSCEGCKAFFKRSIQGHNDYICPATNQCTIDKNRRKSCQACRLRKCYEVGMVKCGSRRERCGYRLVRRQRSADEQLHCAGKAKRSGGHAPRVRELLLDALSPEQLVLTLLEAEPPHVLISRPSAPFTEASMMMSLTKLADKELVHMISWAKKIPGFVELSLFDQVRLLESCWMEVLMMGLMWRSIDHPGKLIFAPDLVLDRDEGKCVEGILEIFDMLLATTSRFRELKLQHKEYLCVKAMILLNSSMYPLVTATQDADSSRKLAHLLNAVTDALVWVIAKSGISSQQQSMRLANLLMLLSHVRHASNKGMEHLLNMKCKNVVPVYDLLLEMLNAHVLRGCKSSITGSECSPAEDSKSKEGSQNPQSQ

| Structure (SMILES) | test | conditions | scale | quantity | result |
| --- | --- | --- | --- | --- | --- |
| CC/C(=C(\c1ccc(O)cc1)c1ccc(OCCN(C)CCOCCOCCOCCOCCOCCOCCOCCN(C)CCOc2ccc(/C(=C(\CC)c3ccccc3)c3ccc(O)cc3)cc2)cc1)c1ccccc1 | radioligand competition binding | concentration not given, Z-E/E isomer form, with: [3H]estradiol tracer | reference: estradiol | relative binding affinity | 9.48% |
| O=C(O)COc1ccc(C(=C2C3CCCC2CCC3)c2ccc(O)cc2)cc1 | binding, radioligand displacement | with: [3H]estradiol | reference: ERβ over ERα RBA, higher = ERβ selective | selectivity ratio | 0.86 |
| N#CC(=CC(=O)c1ccccc1)c1ccc(O)cc1 | coactivator recruitment, agonist, yeast two-hybrid | with: SRC1 | reference: ERα EC50 over ERβ EC50 | selectivity ratio | 2.27 |
| Oc1ccc(-c2cc(-c3ccc(OCCN4CCCCC4)cc3)n(-c3ccc(O)cc3)n2)cc1 | competitive radioligand binding | concentration not given | reference: estradiol, higher = stronger binding | relative binding affinity | 0.015 ± 0.001 |
| Oc1ccc(-c2cc(-c3ccc(OCCN4CCCCC4)cc3)n(-c3ccc(O)cc3)n2)cc1 | competitor, radioligand binding | concentration not given | reference: estradiol | relative binding affinity | 0.021 ± 0.007 |
| Oc1ccc(-c2cc(-c3ccc(OCCCN4CCCCC4)cc3)n(-c3ccc(O)cc3)n2)cc1 | competitive radioligand binding | concentration not given | reference: estradiol, higher = stronger binding | relative binding affinity | 0.011 ± 0.001 |
| N#CC(=Cc1ccc(O)cc1)c1ccc(Cl)cc1Cl | coactivator recruitment, agonist, yeast two-hybrid | with: SRC1 | reference: ERα EC50 over ERβ EC50 | selectivity ratio | 0.5 |
| CCc1c(-c2ccc(O)cc2)nn(-c2ccc(O)cc2)c1-c1ccc(OCCN2CCCCC2)cc1 | competitor, radioligand binding | concentration not given | reference: estradiol | relative binding affinity | 0.49 ± 0.27 |

For quick reference, copied from above:
| Structure (SMILES) | test | conditions | scale | quantity | result |
| --- | --- | --- | --- | --- | --- |
| N#CC(=Cc1ccc(O)cc1)c1ccc(Cl)cc1Cl | coactivator recruitment, agonist, yeast two-hybrid | with: SRC1 | reference: ERα EC50 over ERβ EC50 | selectivity ratio | 0.5 |
